Measurements collected from several papers.
Compare with care: the assays were run in different laboratories. “And” joins repeats or separate records; there may be more than shown. Numbers after ± are the reported error.
BRD9: Bromodomain-containing protein 9 (BRD9, Homo sapiens, UniProt Q9H8M2)
Sequence of UniProt Q9H8M2 (whole entry, looked up): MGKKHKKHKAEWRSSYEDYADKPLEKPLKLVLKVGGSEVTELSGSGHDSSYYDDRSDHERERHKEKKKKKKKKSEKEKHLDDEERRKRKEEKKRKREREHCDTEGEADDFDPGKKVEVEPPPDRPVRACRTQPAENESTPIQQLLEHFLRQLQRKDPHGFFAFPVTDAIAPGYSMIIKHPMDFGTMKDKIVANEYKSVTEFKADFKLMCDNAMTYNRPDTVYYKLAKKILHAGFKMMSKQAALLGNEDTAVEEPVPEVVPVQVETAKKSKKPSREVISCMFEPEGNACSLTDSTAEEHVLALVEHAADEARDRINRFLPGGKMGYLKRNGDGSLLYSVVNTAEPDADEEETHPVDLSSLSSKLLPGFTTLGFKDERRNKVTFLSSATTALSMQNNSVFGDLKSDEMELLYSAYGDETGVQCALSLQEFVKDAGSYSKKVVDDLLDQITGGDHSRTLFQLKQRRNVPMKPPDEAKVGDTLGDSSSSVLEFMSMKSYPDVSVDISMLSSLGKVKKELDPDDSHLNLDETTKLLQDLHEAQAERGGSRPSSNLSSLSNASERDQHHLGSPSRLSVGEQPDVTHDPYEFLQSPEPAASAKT
Protein AF-9 with DOT1L: Protein AF-9, with DOT1L (Homo sapiens, UniProt P42568)
Sequence of UniProt P42568 (whole entry, looked up): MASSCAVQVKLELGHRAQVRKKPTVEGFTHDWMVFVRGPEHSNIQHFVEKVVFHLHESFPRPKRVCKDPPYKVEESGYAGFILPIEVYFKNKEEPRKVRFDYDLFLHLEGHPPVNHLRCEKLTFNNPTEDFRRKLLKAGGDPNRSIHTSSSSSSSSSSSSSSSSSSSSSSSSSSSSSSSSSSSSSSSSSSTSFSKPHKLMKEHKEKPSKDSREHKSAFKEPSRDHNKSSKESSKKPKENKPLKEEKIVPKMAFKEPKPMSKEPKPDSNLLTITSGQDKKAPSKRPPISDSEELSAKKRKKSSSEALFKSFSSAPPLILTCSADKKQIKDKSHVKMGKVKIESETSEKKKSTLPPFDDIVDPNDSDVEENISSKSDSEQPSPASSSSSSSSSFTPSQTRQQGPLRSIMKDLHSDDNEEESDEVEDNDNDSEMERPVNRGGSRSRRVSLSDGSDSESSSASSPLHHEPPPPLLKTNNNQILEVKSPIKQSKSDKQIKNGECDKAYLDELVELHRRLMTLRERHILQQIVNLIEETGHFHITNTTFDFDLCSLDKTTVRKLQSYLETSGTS
Sequence of UniProt Q63881 (whole entry, looked up): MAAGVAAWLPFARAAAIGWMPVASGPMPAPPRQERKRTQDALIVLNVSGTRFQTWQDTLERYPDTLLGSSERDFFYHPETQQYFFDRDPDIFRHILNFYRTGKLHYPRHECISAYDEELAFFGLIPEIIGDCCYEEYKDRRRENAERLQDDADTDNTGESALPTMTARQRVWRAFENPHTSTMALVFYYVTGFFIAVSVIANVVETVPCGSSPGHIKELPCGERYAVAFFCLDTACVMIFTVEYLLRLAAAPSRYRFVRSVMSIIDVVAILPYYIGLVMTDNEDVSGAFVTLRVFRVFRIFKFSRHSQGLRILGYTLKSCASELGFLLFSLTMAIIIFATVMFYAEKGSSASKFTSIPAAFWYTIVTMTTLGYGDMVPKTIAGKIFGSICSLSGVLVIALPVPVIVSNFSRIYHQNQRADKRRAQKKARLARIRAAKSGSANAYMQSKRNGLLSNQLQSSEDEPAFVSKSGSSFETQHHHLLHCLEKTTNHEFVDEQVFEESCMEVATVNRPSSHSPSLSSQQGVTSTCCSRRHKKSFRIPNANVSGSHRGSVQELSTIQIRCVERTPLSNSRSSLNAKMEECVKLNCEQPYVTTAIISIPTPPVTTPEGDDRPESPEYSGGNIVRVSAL
Sequence of UniProt P48730 (whole entry, looked up): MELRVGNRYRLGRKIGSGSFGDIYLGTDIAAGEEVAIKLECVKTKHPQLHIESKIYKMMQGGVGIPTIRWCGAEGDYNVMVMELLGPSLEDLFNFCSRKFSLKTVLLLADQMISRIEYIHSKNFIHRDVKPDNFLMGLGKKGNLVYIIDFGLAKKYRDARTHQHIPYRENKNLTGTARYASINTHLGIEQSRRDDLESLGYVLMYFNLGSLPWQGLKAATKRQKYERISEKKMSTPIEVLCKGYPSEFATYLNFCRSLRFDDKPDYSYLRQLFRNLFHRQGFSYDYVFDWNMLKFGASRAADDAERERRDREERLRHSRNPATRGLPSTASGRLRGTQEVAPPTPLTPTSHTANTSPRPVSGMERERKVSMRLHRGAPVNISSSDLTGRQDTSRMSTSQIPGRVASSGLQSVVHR
Sequence of UniProt Q13233 (whole entry, looked up): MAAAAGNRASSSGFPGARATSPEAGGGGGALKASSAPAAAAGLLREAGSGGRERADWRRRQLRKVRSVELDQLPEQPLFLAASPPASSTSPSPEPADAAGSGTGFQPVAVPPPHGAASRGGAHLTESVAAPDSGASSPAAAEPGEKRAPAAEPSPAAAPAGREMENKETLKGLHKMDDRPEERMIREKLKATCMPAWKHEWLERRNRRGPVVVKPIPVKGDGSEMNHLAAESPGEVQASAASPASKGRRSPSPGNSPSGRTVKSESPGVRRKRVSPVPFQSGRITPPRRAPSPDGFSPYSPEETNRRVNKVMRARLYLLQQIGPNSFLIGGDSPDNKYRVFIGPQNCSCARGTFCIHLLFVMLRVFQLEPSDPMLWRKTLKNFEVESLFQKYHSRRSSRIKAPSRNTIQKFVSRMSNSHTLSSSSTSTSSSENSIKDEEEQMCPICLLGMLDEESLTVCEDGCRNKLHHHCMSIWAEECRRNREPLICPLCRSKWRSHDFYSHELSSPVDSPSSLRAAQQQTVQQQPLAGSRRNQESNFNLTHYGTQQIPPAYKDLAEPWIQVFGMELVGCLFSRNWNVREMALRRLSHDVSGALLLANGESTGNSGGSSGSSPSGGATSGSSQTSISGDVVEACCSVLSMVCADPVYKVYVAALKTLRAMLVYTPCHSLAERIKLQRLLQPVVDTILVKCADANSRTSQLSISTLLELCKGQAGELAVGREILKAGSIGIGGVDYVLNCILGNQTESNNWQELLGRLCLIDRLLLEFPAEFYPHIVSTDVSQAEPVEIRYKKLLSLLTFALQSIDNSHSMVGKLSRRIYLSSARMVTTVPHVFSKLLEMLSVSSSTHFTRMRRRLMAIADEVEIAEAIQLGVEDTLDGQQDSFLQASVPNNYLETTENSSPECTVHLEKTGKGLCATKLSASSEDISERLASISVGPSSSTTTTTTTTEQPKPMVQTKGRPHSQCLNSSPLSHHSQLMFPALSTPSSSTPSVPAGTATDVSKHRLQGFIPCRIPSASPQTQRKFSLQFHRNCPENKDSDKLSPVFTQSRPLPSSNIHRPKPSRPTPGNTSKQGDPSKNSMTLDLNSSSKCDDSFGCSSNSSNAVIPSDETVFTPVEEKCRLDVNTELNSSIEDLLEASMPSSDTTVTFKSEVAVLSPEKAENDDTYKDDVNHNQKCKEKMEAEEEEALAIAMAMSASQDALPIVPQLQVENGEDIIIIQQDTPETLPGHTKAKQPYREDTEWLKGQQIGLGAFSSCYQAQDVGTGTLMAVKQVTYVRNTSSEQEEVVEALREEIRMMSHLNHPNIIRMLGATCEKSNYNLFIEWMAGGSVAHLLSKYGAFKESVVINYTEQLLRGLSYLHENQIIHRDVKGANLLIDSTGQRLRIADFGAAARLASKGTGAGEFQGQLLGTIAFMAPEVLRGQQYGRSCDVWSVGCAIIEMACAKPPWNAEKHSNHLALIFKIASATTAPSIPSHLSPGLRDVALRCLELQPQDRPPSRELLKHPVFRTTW
Sequence of UniProt P05164 (whole entry, looked up): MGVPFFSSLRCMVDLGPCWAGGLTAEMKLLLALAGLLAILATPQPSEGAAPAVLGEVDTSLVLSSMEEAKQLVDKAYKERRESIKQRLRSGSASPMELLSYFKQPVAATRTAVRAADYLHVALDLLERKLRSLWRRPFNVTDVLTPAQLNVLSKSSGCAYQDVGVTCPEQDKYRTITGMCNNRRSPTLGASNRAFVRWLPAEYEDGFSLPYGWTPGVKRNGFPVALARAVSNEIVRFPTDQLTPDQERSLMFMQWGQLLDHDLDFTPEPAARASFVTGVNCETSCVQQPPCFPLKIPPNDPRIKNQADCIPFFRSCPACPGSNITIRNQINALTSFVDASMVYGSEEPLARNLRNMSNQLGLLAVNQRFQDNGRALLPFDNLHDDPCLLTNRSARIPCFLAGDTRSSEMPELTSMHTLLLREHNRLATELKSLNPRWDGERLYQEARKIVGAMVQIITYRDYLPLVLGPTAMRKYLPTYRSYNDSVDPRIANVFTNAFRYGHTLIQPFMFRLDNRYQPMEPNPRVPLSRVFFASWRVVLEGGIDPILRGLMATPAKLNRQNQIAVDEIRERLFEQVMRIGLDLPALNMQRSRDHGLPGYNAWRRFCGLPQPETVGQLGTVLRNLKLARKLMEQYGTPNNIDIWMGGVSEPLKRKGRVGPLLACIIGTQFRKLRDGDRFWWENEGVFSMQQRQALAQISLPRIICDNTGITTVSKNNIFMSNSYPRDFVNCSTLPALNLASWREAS
Sequence of UniProt P34975 (whole entry, looked up): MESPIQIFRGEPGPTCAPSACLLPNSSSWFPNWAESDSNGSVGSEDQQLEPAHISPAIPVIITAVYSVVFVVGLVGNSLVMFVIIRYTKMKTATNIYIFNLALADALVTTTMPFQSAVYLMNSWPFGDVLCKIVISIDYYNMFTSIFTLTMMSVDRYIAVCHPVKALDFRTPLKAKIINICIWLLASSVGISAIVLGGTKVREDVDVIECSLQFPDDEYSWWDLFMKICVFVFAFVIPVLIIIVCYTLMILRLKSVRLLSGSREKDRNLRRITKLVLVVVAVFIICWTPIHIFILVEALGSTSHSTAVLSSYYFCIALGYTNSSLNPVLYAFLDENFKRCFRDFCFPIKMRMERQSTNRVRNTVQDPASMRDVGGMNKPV

With `CC/C(=N\NC(=O)NCc1cccc(O)c1)c1ccc(O)c(C)c1O` the inhibition was 1.9% (Mitogen-activated protein kinase kinase kinase 1 (MAP3K1, Homo sapiens, UniProt Q13233); kinase activity; 0.1 µM).
The inhibition of `Cc1ccc(C(=O)Nc2ccc3ccccc3c2)o1` is reported as 8.2% and 0.8% and 7.7% and 14.5% and 4.4% (A-type voltage-gated potassium channel KCND2 (Rattus norvegicus, UniProt Q63881); ion current, inhibitor, whole-cell patch clamp; 10 µM).
With `CC(=O)c1cc(-c2ccccc2Cl)c2ccccn12` the inhibition was 13% (BRD9; AlphaScreen; 1 µM).
`CC1CCN(c2ccc(Nc3ccc4ncc(OCC5CCNCC5)nc4c3)cc2)CC1` gave an inhibition of 64% (Protein AF-9 with DOT1L; DOT1L binding, AlphaLISA; 10 µM).
`CN1CCN(c2cc(-c3ccncc3)c(-c3ccc4ccccc4c3)nn2)CC1` gave an inhibition of 21.5% (Secretin receptor (SCTR, Homo sapiens, UniProt P47872); antagonist, FLIPR; 10 µM).
For `Cc1nn(-c2cccc([N+](=O)[O-])c2)c(=O)c2nocc12`, the inhibition was -15.5% (GABAA receptor; binding, radioligand displacement; concentration not given, together with: muscimol radioligand).
`COc1ccc(OC)c(NC(=O)COC(=O)COc2ccc(Nc3ccccc3)cc2)c1` gave an inhibition of greater than 30% (uncharacterized protein (Erigeron canadensis, UniProt A0A8M0FGR5); enzyme activity; 100 mg/L).
`NC/C(=C\F)COc1cccc(Cn2c(=S)[nH]c(=O)c3[nH]cnc32)c1` gave an inhibition of 73.9% (Myeloperoxidase (MPO, Homo sapiens, UniProt P05164); enzyme activity; 0.037 µM).
For `Fc1ccc(-c2ncn(-c3ccccc3)c2-c2ccncc2)cc1`, the inhibition was 33% (Casein kinase I isoform delta (CSNK1D, Homo sapiens, UniProt P48730); inhibitor; 1 µM).
`COc1cc(-c2cc(C(C)=O)n3ccccc23)c(OC)cc1Cn1ccnc1` has an inhibition of -11.4% (PHIP, BD2 (Homo sapiens, UniProt Q8WWQ0); 1 µM).
The inhibition of `CC(C)(C)c1ccc(-c2ccc3ncc(OCC4CCNCC4)nc3c2)cc1` is reported as 9 to 18% (Protein AF-9 with DOT1L; DOT1L binding, AlphaLISA; 10 µM).
`COc1cc(C(C)(C)O)c(OC)cc1-c1cc(C(C)=O)n2ccccc12` gave an inhibition of 94.6% (BRD9; AlphaScreen; 1 µM).
`CC[C@@H]1[C@H](F)C(=O)N[C@@H]1COc1nccc2cc(C(N)=O)c(OC)cc12` gave an inhibition of 8.5% (Serine/threonine-protein kinase Chk2 (CHEK2, Homo sapiens, UniProt O96017); ATP-site probe binding, ActivX profiling; THP-1 cell lysate; 0.04 mM, Lys1 site).
`COc1cc(C(=O)NS(=O)(=O)c2ccccc2C)ccc1Cc1cn(C)c2ccc(NC(=O)OC3CCCC3)cc12` has an inhibition of 20.3% and -0.81% and 17.2% and 15.7% and 7.58% and 20.1% (Volume-regulated anion channel subunit LRRC8C, part LRRC8A IL1 chimera (LRRC8C, Homo sapiens, UniProt Q8TDW0, Y126F); ion current, inhibitor, whole-cell patch clamp; HCT LRRC8-/- cells; 0.03 µM, +100 mV).
For `Cc1ccc(-c2ccc3ncc(OCC4CCNCC4)nc3c2)cc1`, the inhibition was 9 to 18% (Protein AF-9 with DOT1L; DOT1L binding, AlphaLISA; 10 µM).
With `COc1ccc(C(=O)/C=C/c2cccc(-c3cccc(-c4ccc(CNC(CO)(CO)CO)c(OC)n4)c3C)c2)cc1` the inhibition was 9.4 ± 0.9% (Programmed cell death 1 ligand 1 (CD274, Homo sapiens, UniProt Q9NZQ7); binding, inhibitor, HTRF; 1 µM).
`COc1cc(Cl)c(C(=O)N[C@@H](CN[C@H]2CC[C@@H](N)CC2)Cc2ccc(C#N)cc2)cc1-c1ccc(CN[C@H](C)c2ccc(C)cc2)o1` gave an inhibition of 62% (Kappa-type opioid receptor (Oprk1, Rattus norvegicus, UniProt P34975); agonist response, antagonist; 10 µM; reference: agonist control).
With `Cn1cncc1C1=CN(c2ncnc3[nH]cnc23)CCS1` the inhibition was 47% (RAF1 (human); kinase activity, inhibitor, radiometric kinase; 2 µM).

Excerpt of the above:
`NC/C(=C\F)COc1cccc(Cn2c(=S)[nH]c(=O)c3[nH]cnc32)c1` gave an inhibition of 73.9% (Myeloperoxidase (MPO, Homo sapiens, UniProt P05164); enzyme activity; 0.037 µM).
